Results from different studies.
Every numbered part comes from another study and shows a few of its results, in no order. Substitutions count along the parent as printed.

Sample 1
Target: HLA class I histocompatibility antigen, A alpha chain, allele A*25:01 (Homo sapiens, UniProt P04439)
Effect on: peptide-MHC binding
Molecule type: peptide
Tested at: concentration not given
Measurement: binding
Molecule = EIKDRILSY; result = active
Molecule = KQWIVAGAI; result = inactive
Molecule = FEFILRYGD; result = inactive
Molecule = ALGGSCHTT; result = inactive
Molecule = NFFHASLAY; result = inactive

Sample 2
Target: CCND2, cyclin fold, Cln2 fusion (human)
Technique: yeast growth competition, sequencing
Medium: yeast
Notes: strong parent motif
Relative to: not given
Reading: higher = stronger binding
Measurement: normalised enrichment score
Starting sequence: viral docking peptide; YKVKRRLVFGADD
Variant = YKVKRRLVFGPDD [A11P]; result = 2
Variant = YHVKRRLVFGADD [K2H]; result = 1.35
Variant = YKVKRRLVFTADD [G10T]; result = 1.43
Variant = YKVKRRLVFNADD [G10N]; result = 1.68
Variant = YFVKRRLVFGADD [K2F]; result = 0.565
Variant = YKVKRRLVFGATD [D12T]; result = 0.967
Variant = YKVKRRLVWGADD [F9W]; result = 0.424

Sample 3
Target: TAR DNA-binding protein 43, full length, His tag (TARDBP, Homo sapiens, UniProt Q13148, residues 1-414)
Technique: RNA Bind-n-Seq
Molecule type: RNA
Medium: in vitro
Tested at: 20 nM
Notes: 6-mer, flanks averaged, single round
Added: 150 mM KCl
Relative to: input library
Reading: higher = stronger binding
Measurement: 6-mer enrichment (R)
Sequence = UGUCAC; result = 0.649
Sequence = UUAGUG; result = 0.882
Sequence = CUAAUC; result = 0.553
Sequence = AAGGAU; result = 0.776
Sequence = AAACUU; result = 0.584
Sequence = ACUGAC; result = 0.656
Sequence = UUGAUC; result = 0.585
Sequence = AGGCUG; result = 1.36

Sample 4
Target: UBE2D2 UBC core domain (UniProt P62837)
Chain of UniProt P62837 (whole entry, looked up): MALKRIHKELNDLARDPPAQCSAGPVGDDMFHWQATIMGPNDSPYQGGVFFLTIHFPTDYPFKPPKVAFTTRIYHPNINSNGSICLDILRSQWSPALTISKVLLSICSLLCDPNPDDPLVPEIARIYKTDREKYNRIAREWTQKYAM
Technique: yeast two-hybrid
Medium: yeast
Notes: mostly zero background
Relative to: not given
Reading: higher = stronger interaction
Measurement: lacZ reporter activity
B1: HLTF RING domain (UniProt Q14527); chain LILSSGSDEECAICLDSLTVPVITHCAHVFCKPCICQVIQNEQPHAKCPLCRNDIHEDNLLE
B2: ZMYND11 RING domain (UniProt Q15326); chain DEIDWETENHDWYCFECHLPGEVLICDLCFRVYHSKCLSDEFRLRDSSSPWQCPVCRSIKKKNTNKQEM
Molecule = DDVLTKDAGECVICLEELLQGDTIARLPCLCIYHKSCIDSWFEVNRSCPEHPAD (ZNRF1 RING domain (UniProt Q8ND25)); result = 13600
Molecule = B1 (HLTF RING domain); result = 0
Molecule = FAEQPSVKLCCQLCCSVFKDPVITTCGHTFCRRCALKSEKCPVDNVKLTVVVNNI (TRAF7 RING domain (UniProt Q6Q0C0)); result = 0
Molecule = B2 (ZMYND11 RING domain); result = 0

Some of these lines once more (sample 1):
Molecule = ALGGSCHTT; result = inactive
